Published values gathered from unrelated publications.
Every numbered part comes from another study and shows a few of its results, in no order.

Set 1 — method: protein-binding microarray; form: double-stranded DNA, one strand shown; sample: in vitro; concentration: 2540 nM top; notes: 60-bp whole probe; together with: salmon DNA 0.4 mg/ml; relative to: random background probes; direction: higher = stronger binding; all sequences stand within: GCCTAGCAC … GTCTTGATTCGCTTGACGCTGCTG
Target: Interferon regulatory factor 3, full length, phosphomimetic (IRF3, Homo sapiens, UniProt Q14653, residues 1-427, S386D/S396D/S398D/S402D/T404D/S405D)
Chain of UniProt Q14653 (whole entry, unmodified, looked up): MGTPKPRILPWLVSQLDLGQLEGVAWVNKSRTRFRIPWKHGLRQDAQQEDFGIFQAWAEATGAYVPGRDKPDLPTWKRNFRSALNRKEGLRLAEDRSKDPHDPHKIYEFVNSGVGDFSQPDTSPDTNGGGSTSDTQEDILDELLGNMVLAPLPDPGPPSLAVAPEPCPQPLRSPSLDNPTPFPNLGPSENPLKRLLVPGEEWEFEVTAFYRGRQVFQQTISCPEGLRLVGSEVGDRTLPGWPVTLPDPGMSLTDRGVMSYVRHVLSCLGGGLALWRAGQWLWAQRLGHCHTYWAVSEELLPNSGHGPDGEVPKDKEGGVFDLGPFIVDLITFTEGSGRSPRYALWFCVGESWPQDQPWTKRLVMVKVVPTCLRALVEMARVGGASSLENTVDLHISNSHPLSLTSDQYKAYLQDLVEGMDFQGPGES
`ATACTGAGAAAGCACTGGACGTGCTAG` — result for “fitted relative affinity”: -0.145 z-score.
`TCACATTTATATCTTTGACTGTGCTAG`: “fitted relative affinity” 1.1 z-score.
`AAGTTTTTATTTTCTGAATGGTGCTAG` — result for “fitted relative affinity”: 3.28 z-score.
For `TCAGCTCCCTTTCTCTCACTGTGCTAG`, “fitted relative affinity” read 2.76 z-score.
`TTAGTTCTCAGTATCGATTAGTGCTAG` — result for “fitted relative affinity”: 1.51 z-score.
Under “fitted relative affinity”, `GACGGTTTCGGGTCTCGGGACGTGCTA` is recorded as 6.02 z-score.
For `GACGATCTCAGTTTCGATACGTGCTAG`, “fitted relative affinity” read 4.05 z-score.
`TCATGTTTGGCCCTGAAACTGTGCTAG`: “fitted relative affinity” -0.331 z-score.
`CAACCAATCATTTTTGCTTAGTGCTAG` — result for “fitted relative affinity”: 0.964 z-score.

Set 2 — method: Sort-seq; item: YFP reporter; sample: E. coli; notes: PhoQ-PhoP variant library; together with: 10 µM Mg2+; relative to: high Mg2+ state; direction: higher = stronger signaling
Molecule: PhoQ, residues 284 288 289 292 302 303 SSTLSG
It gave 7.67 for fold induction (PhoP, residues 12 14 15 18 19 LHTVL (Escherichia coli, UniProt P23836)).
For PhoP, residues 12 14 15 18 19 TQAML (Escherichia coli, UniProt P23836): fold induction read 21.9.
It gave 17.8 for fold induction (PhoP, residues 12 14 15 18 19 NQCAL (Escherichia coli, UniProt P23836)).

Set 3 — method: universal PBM; form: double-stranded DNA, one strand shown; sample: in vitro; concentration: not given; direction: higher = stronger binding
Target: Sal-like protein 4, full length isoform B (SALL4, Homo sapiens, UniProt Q9UJQ4-2, residues 1-616)
Notes: 8-mer, flanks averaged, mean of replicates
`CGAGATGA` gave an E-score of -0.102.
For `GGAAGGCA`, the E-score was -0.177.
The E-score of `GTTGTCTA` is reported as 0.178.
The E-score of `CGGTTATA` is reported as 0.256.
The E-score of `CGGTTACG` is reported as -0.213.
`ATGGAGTA` gave an E-score of 0.126.
The E-score of `GCCATAAA` is reported as 0.162.
`CCATTCAC` has an E-score of -0.0442.
`ATAACCCG` gave an E-score of 0.0272.
The E-score of `CCGGGGTC` is reported as -0.388.
`ACTTGATA` has an E-score of 0.283.
With `GCTGACAC` the E-score was -0.126.

Other studies, line by line
`RBMXL2 (Homo sapiens, UniProt O75526)` — result for interaction screen: “cross-linked” (RBMX (Homo sapiens, UniProt P38159); cross-linking MS; hits only).

Some of these lines once more (set 3):
With `GCTGACAC` the E-score was -0.126.
`ATGGAGTA` gave an E-score of 0.126.
